Published values from different studies.
Each numbered part is a random draw from the data of one study; scales do not carry over between parts. Positions count from the first letter of the parent shown.

Study 1 — technique: RNA Bind-n-Seq; form: RNA; sample: in vitro; concentration: 365 nM; relative to: no-protein control; direction: higher = stronger binding
Target: RNA binding protein fox-1 homolog 2, RRM domain, GST-SBP tag (RBFOX2, Homo sapiens, UniProt O43251-10, residues 100-194)
Notes: natural RNA segment, single round, ends assumed
Residues (chain): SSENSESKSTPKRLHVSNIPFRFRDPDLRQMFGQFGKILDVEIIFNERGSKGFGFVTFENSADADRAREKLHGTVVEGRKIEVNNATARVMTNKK
Sequence	RBNS enrichment (R)
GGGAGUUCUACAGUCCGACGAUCUAGCACCUUUUUGCCACCUUGGUGAACAGAAAAUUGUAUUUUCCUGUCUUUCAUGGCUGAAAACAAAAGUAAUGGGAAUUUUAAAUACGUUUGCAGAAACUGCCCCUCCCUGGAAUUCUCGGGUGCCAA	0.353
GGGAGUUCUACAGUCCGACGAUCGAUAAUUGAAACAUGUUAAAACAUUUAAUAUUGUAUAGGAUAUUGCUAAUUGUGUAUAUGUUGGUUUAAUUAUUAAUUAUGUACUAAGAAUGUCCUUAUUCUUGUGGUUAUGGAAUUCUCGGGUGCCAA	0.493
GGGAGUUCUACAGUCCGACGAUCCAAACACUGGCCUUCUGUUCCUCUUGAAAUUUACCUCCCAACUUGUUCAUCUCUGCCUUUGGACUAAAUAGGGGCAUCUGUGCAAAACUGUAGAAGCCAUUUUGAAGGAUUGGAAUUCUCGGGUGCCAA	0.481
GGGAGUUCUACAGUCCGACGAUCAGCAGUGUGGUUACUUCUUUCUUCUGCCUCGACUCACAUGGCUUCUCCCCACGAAGGUCCCAGGGUGGCCAUUUAUACAAUCCAUUUCUGUCCUCUUUAUGGAAUGUAGUUGGAAUUCUCGGGUGCCAA	0.302
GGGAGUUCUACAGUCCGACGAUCAUGUCCUUUGGAAACCUGGUCACCUGGUGAAAACCCUUGGGAUUCUUCCCUGGGCAUGACUGAUGACAAUUUCCAUUUCAUCAGUUUGUUUUGUUUUCCUUUUUCUUUAAUGGAAUUCUCGGGUGCCAA	0.379
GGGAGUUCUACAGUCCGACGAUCUCGUGUCUGCCUGCGGGCUCCUGAGGGUCCACAGCUGAGCUGAUCCAUCUUUCCCUCAAGUGACCGUAUCUAGUGACAGGAAGGGAGAACCCUACAGUAGAUCCCUCUGCUGGAAUUCUCGGGUGCCAA	0.262
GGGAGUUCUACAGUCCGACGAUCUCUGAAUAGAGGAAGAGAGAACCCCACAACAGCCAUACACGGGUAGUGUCCCUUUCCUCUCAGAGCCAAGUUCCAUUCCUGGAGUUAUCCUCUAGGCAUGAAGCCUUCCAUGGAAUUCUCGGGUGCCAA	0.305
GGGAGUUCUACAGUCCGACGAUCUAAAAAUGGAUAGAAAAUAAAAAUAUAAGUUAGUAUGGUUUAAUUCUGAAAAUACAAAUUAUCUUCCUUUAAGAAACCUACCAUUAAGCCAGGUGUGGAUUGACACACCUUGGAAUUCUCGGGUGCCAA	0.832
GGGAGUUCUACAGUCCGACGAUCGUCGAUUUCCUGCCACCUGGGCAGAUAACCUGGAGAUUUUCACCUUUUCUUUUCAGCUUGAUUGCAUUUGACUAUAUUUUACAGCCAGUGAUUGUAGUUUCAUGUUAAUAUGGAAUUCUCGGGUGCCAA	0.443
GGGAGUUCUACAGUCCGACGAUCGUAAUGCAGGAUCAAGACCACCACUGCAUGUGUACUGAAAACUGCAGACUUCUGCCCGCUUGGGACAGAACAUUGCAUGUGAGGUGGGAUUAUCAAGUUUCAAAGACCUGUGGAAUUCUCGGGUGCCAA	5.76
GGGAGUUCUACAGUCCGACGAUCUGAGCCAUGAAAAAAGUAAUGAACUUGUGCUGUUAAUCGUCACUGUAAUGAGAAGUCUUACGUACAACAUAGCUGUGGUGGCUUAAUGGCUGCAUUAGAUAGGAUCCUCAUGGAAUUCUCGGGUGCCAA	0.371
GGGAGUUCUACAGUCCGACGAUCUUUCUUGGAAGUAGUUUGAUUGUUGAGAGAGACCUUUGAUCUGCAGUGUAAAUCUACCAGUCAUGGGCCAGAAGGGCAAAAGCCCAGCUUUCUCUUUGGAAAGACUCAGGUGGAAUUCUCGGGUGCCAA	0.227

Study 2 — technique: aptamer microarray, sandwich; form: DNA with 2'F-ANA; sample: in vitro; concentration: 200 nM; with: Cy3 exosite-II aptamer, 400 nM; direction: higher = stronger binding; sequence: GGTTGGTGTGGTTGG
Target: Prothrombin, mature alpha-thrombin (F2, Homo sapiens, UniProt P00734)
Notes: whole 15-mer aptamer, many near background
Modification	mean fluorescence intensity [a.u.]
2'F-ANA at 3 4 6 7 9 10 11 13 14	167
2'F-ANA at 1 2 3 4 5 7 8 10 11 12 15	52.6
2'F-ANA at 6 7 9 15	443
2'F-ANA at 1 6 7 8 10 14 15	49.7
2'F-ANA at 2 3 5 6 9 10 11 12 15	58.5
2'F-ANA at 2 8 9 14 15	148
2'F-ANA at 2 3 4 6 7 8 10 12 13	222
2'F-ANA at 2 3 4 5 6 7 9 15	119
2'F-ANA at 1 3 4 5 8 9 11 13 14	45.7
2'F-ANA at 1 2 3 5 7 8 10 11 12	48
2'F-ANA at 2 3 4 11 12 13 14	303
2'F-ANA at 2 7 10 12	192
2'F-ANA at 1 5 6 7 8 9 10 11 12 14 15	68
2'F-ANA at 1 2 4 5 9 10 12 15	90.9
2'F-ANA at 2 5 6 7 9 10	87.7
2'F-ANA at 1 11 12 14	77.8
2'F-ANA at 2 10 11 12 13 15	153

Study 3 — technique: DHFR PCA, deep sequencing; sample: yeast; with: (+)-ABA 1.4 µM; relative to: wild-type fitted maximum; direction: higher = stronger binding
Target: ABI1, truncated, D143A, DHFR fusion (Arabidopsis thaliana)
Notes: methotrexate growth selection, single substitutions
Starting sequence: PYL1, truncated, DHFR fusion (Arabidopsis thaliana); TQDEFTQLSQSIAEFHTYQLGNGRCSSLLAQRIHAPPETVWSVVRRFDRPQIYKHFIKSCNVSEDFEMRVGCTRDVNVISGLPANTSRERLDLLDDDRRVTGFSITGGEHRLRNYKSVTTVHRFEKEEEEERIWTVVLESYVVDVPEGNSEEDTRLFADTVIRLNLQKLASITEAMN
Change	relative binding score [%]
E130W	19.4
V44A	7.98
V78K	-7.89
I162K	5.57
F103I	6.58
L93V	68.7
L164K	9.29
R99L	73.9
A35C	24.2
V100C	27.7
C60P	-7.07
M68C	36.9
A158P	-20.9
S27A	28.4
V76K	2.95
E131C	63.6
V100E	-5.57
N177F	37
F157A	3.17
V137T	-3.94
E151S	45.8
T6C	53.2
G108N	-10

Study 4 — technique: protein-binding microarray; form: double-stranded DNA, one strand shown; sample: in vitro; concentration: 250 nM; notes: 60-bp whole probe; with: salmon DNA 0.4 mg/ml; relative to: random background probes; direction: higher = stronger binding; all sequences stand within: GCCTAGCAC … GTCTTGATTCGCTTGACGCTGCTG
Target: Interferon regulatory factor 7, full length, phosphomimetic (IRF7, Homo sapiens, UniProt Q92985, residues 1-503, S101K/S471D/S472D/S475D/S476D/S477D/S483D/S484D/S487D)
Chain of UniProt Q92985 (whole entry, unmodified, looked up): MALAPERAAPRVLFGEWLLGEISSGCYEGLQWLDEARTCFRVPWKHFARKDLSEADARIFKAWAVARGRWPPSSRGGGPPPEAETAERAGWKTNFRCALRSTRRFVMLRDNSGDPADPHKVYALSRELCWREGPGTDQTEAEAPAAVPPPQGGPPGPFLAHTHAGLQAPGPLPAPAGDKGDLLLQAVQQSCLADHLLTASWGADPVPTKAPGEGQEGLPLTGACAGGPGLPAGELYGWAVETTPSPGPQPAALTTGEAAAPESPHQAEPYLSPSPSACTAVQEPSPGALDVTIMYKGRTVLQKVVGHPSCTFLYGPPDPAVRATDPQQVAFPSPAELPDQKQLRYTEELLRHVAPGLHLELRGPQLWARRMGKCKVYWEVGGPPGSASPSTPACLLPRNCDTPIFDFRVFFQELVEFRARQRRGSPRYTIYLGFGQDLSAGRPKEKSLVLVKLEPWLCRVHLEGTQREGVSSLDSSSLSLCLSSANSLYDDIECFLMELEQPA
Sequence	log fluorescence
TTACGTTTCGACTTTCGGTTAGTGCTA	6.38 z-score
TTAGATTTCGGGACTGGACTAGTGCTA	-0.119 z-score
GGTGCTGTTTACATAGTTCTGTGCTAG	-0.131 z-score
TCATTTTATGCTTTCTTACTGTGCTAG	1.14 z-score
GAGGAGATGAGAAACGATGAGTGCTAG	-0.569 z-score
TTAGGCCTGGGTATCGGTTAGTGCTAG	1.06 z-score
GCCGGACTGCTTATCCTGACGTGCTAG	-0.446 z-score
TTACAACTGAGTATCGATTAGTGCTAG	0.646 z-score
TTAGCTATCCTTATCCTTTAGTGCTAG	-0.0169 z-score
GATATTATATCTGTGTTATTGTGCTAG	0.585 z-score
GACGGTCTCCTACTGATGACGTGCTAG	-0.178 z-score
TTAGGGCTCGGTATCGGTTAGTGCTAG	3.24 z-score
TTAGATAGCAGTCTCGATTAGTGCTAG	0.819 z-score
GACTGACTGCTTTTCCTGACGTGCTAG	0.058 z-score
GACGGTTTCCTTCTCCGGACGTGCTAG	2.83 z-score
TACGGTCTCCTTCTCCTGACGTGCTAG	0.417 z-score
TCACTTTCCCAGCCTGGGACTGTGCTA	3.22 z-score

Some of these lines once more (study 1):
Sequence	RBNS enrichment (R)
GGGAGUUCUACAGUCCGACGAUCUCGUGUCUGCCUGCGGGCUCCUGAGGGUCCACAGCUGAGCUGAUCCAUCUUUCCCUCAAGUGACCGUAUCUAGUGACAGGAAGGGAGAACCCUACAGUAGAUCCCUCUGCUGGAAUUCUCGGGUGCCAA	0.262
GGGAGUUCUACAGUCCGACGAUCUCUGAAUAGAGGAAGAGAGAACCCCACAACAGCCAUACACGGGUAGUGUCCCUUUCCUCUCAGAGCCAAGUUCCAUUCCUGGAGUUAUCCUCUAGGCAUGAAGCCUUCCAUGGAAUUCUCGGGUGCCAA	0.305
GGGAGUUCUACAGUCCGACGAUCUAAAAAUGGAUAGAAAAUAAAAAUAUAAGUUAGUAUGGUUUAAUUCUGAAAAUACAAAUUAUCUUCCUUUAAGAAACCUACCAUUAAGCCAGGUGUGGAUUGACACACCUUGGAAUUCUCGGGUGCCAA	0.832
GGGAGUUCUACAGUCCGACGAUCGUCGAUUUCCUGCCACCUGGGCAGAUAACCUGGAGAUUUUCACCUUUUCUUUUCAGCUUGAUUGCAUUUGACUAUAUUUUACAGCCAGUGAUUGUAGUUUCAUGUUAAUAUGGAAUUCUCGGGUGCCAA	0.443
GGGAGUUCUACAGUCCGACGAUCGUAAUGCAGGAUCAAGACCACCACUGCAUGUGUACUGAAAACUGCAGACUUCUGCCCGCUUGGGACAGAACAUUGCAUGUGAGGUGGGAUUAUCAAGUUUCAAAGACCUGUGGAAUUCUCGGGUGCCAA	5.76
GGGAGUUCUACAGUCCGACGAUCUGAGCCAUGAAAAAAGUAAUGAACUUGUGCUGUUAAUCGUCACUGUAAUGAGAAGUCUUACGUACAACAUAGCUGUGGUGGCUUAAUGGCUGCAUUAGAUAGGAUCCUCAUGGAAUUCUCGGGUGCCAA	0.371
